Assay results of several laboratories.
Parts stem from different laboratories: compare values within a part only. Substitutions count along the parent as printed.
Sequence of UniProt P63146 (whole entry, looked up): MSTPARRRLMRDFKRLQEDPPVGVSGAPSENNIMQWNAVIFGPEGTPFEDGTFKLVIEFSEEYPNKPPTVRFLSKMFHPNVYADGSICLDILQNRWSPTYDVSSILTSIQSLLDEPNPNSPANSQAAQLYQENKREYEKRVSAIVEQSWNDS
Sequence of UniProt Q8N2K1 (whole entry, looked up): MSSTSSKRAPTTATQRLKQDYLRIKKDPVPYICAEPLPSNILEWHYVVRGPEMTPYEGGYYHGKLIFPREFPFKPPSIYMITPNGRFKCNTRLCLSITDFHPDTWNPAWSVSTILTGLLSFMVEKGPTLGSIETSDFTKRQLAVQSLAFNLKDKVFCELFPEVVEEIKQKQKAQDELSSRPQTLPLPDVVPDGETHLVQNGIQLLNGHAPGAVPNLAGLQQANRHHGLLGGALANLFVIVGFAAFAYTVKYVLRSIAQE
Sequence of UniProt Q16763 (whole entry, looked up): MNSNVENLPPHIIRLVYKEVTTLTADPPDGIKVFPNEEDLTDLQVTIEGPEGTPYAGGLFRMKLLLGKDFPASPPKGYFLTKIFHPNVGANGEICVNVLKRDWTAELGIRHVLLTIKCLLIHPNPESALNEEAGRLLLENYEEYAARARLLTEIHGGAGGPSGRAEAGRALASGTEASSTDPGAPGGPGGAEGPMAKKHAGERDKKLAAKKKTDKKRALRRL
Sequence of UniProt Q9C0C9 (whole entry, looked up): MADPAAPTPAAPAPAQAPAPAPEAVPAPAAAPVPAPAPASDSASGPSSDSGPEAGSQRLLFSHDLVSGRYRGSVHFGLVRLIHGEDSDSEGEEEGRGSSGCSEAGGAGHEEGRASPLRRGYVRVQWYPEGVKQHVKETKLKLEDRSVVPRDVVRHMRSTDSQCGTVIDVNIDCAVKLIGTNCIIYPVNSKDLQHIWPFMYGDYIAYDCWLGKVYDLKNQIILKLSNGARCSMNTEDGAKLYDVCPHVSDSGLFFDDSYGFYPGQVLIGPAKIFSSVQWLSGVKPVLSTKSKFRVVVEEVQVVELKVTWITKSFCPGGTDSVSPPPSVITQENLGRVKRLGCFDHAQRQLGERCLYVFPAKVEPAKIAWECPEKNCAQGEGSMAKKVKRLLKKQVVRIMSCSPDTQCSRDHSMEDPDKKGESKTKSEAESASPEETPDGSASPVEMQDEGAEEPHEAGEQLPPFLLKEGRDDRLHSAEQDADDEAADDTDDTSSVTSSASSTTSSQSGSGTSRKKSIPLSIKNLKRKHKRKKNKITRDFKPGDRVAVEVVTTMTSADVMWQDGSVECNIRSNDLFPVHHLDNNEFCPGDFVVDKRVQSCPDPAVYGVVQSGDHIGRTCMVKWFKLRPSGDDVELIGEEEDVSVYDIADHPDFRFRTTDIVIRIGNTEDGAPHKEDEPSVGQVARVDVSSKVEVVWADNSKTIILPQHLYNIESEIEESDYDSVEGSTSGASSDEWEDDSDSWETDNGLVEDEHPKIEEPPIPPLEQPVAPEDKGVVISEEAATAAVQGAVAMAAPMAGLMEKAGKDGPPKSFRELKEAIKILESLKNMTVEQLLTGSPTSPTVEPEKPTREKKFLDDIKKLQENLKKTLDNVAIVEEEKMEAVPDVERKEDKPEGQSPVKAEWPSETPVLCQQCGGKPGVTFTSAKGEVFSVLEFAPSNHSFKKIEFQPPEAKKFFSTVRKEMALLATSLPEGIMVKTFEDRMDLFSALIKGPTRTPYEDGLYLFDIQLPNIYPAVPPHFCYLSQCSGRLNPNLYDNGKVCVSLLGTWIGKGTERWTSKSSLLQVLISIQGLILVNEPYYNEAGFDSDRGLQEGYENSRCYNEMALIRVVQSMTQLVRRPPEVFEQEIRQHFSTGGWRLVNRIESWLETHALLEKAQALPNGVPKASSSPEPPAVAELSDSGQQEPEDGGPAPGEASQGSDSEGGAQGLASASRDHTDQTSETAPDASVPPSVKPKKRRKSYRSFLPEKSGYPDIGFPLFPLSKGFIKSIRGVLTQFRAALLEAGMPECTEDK
Sequence of UniProt Q9Y385 (whole entry, looked up): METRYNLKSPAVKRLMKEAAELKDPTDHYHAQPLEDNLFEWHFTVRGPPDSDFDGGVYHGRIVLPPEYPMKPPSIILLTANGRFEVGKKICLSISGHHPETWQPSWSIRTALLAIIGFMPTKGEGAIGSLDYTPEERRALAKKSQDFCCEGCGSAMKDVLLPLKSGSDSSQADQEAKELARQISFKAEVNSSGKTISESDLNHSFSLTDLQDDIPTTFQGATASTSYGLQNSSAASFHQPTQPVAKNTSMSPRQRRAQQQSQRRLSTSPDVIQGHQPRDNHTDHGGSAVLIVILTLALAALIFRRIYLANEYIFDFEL
Sequence of UniProt Q9H832 (whole entry, looked up): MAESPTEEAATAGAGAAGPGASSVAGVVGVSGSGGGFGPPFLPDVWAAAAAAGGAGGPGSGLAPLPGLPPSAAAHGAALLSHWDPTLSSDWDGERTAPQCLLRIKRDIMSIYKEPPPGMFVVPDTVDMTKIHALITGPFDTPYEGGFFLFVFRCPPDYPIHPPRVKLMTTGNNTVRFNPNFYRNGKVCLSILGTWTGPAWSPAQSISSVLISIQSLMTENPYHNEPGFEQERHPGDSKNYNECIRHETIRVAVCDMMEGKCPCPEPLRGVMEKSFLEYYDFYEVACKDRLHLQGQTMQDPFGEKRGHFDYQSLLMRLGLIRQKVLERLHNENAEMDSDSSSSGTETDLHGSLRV

Study 1 — technique: protein binding microarray; form: double-stranded DNA, one strand shown; medium: in vitro; concentration: not given; baseline: not given; reading: higher = stronger binding
Target: Histone acetyltransferase KAT6A, winged helix 1, GST fusion (KAT6A, Homo sapiens, UniProt Q92794, residues 1-85)
Notes: 8-mer, flanks averaged, mean of 2 arrays, mostly near background
Target sequence (chain): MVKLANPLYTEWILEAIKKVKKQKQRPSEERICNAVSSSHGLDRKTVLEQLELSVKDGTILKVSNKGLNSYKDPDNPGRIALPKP
Sequence	E-score
GCTCGCAC	0.198
ACAAAGCG	0.113
AACCGGAA	0.202
ACACCGCA	-0.0127
CCGCCTAA	0.253
CGTCAATA	0.136
AGTAACGC	0.09
ACCTCACC	-0.137
ATACTTTA	-0.196
CCTGGGTA	-0.164
GGTGAACC	0.0597
AGATGGGC	0.0177
TCCCGGCA	0.339
CAGCCCGG	0.339
CTAAGATA	-0.146
CTGATCAA	-0.0863
CTACCACC	-0.0612
CTTGCCCC	-0.0511
CGGCCTAA	0.159
CCCGGTCG	0.389
TCATTCGA	-0.265
GCCGCGGA	0.418
CCAATACA	-0.0552
ACTCGGTC	0.105
TCCTGGCA	-0.134

Study 2 — technique: EMSA with sequencing; form: double-stranded DNA, one strand shown; medium: in vitro; concentration: 10 and 20 nM; baseline: negative control set to 0; reading: higher = stronger binding
Target: Hepatocyte nuclear factor 3-alpha (Foxa1, Mus musculus, UniProt P35582, residues 1-468, full length assumed)
Notes: whole designed probe, mean of two concentrations, ends assumed
Residues (chain): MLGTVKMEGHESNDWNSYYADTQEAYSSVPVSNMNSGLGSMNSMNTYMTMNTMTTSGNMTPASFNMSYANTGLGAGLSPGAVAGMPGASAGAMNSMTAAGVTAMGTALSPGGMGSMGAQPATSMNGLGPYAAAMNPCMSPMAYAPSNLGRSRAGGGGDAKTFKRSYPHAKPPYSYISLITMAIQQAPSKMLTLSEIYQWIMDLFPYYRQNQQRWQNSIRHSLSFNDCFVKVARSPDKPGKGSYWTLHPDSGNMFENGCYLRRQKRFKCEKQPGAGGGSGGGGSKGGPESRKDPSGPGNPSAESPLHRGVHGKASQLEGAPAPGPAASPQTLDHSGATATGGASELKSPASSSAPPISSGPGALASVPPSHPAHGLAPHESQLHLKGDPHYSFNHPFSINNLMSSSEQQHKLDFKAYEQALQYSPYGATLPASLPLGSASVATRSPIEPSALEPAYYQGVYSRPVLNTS
Sequence	normalised bound fraction [ratio]
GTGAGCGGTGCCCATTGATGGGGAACATCTTCCCCCTCTTCCTTGCCCCACCAGATGGCGTTCTATTCCTCCCTGCAGATAGGAAAATAAATAAAGCCGGCATTCGTTAACCCTCTTCTGGCGCAAACTGCTGTTTGCTCTGGATGAATCATGGTCCTTTGGCGACGCCAGGCTCCGGGAGAGCAAAGCACCGTGTCAGGGCCATGATCCGGGGTGGCCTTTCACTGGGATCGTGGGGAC	0.316
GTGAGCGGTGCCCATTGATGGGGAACCTTGGCATGTTATATAACAACTTAACTAACGGCCGCCATGCACGAAAGAGCAAACCGTCCTGTTGCCTAGTGACTATTATCCAAGGCAATCAAAGTAAACAGCAAATGCCACAGATATTTTTGAACAGCTGTTTGTTGACCCAGATACAATATTTATATGGCTCGCTAGTTTCTCAGACAGAATTGGACCCTATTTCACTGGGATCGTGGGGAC	0.373
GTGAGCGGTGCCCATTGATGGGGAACGTGGAAGAAGCAAATTATTTTTGTGTTAAAATGGATATTATCAACTGCAAAGAAAAAGGTGAATATTTCACAAGTGAGCCAGAACATTTACAGTGTAAACAAGAGCAGTTGCTACCTTTGCTTTTTTTTTCCCACTTCTTCAATATGATCACCATGCTTTTCATTACCCTGCTACTCAGTATTTCTAGTCAACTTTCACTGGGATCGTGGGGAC	0.328
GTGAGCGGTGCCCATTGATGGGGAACATCTTCCCCCTCTTCCTTGCCCCACCAGCTCACCTACGGGGGTTATTTGCAGATAGGAAAATAAATAAAGCCGGCATTCGTTAACCCTCTTCTGGCGCAAACTGCTGTTTGCTCTGGATCTAACATGGTCCTTTGGCGACGCCAGGCTCCGGGAGAGCAAAGCACCGTGTCAGGGCCATGATCCGGGGTGGCCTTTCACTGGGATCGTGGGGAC	0.352
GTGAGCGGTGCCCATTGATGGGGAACCCCTACAATGGCTGGAATATGGAGTGAAATGCCAGGGTGGTCCCTACTAAGTGCATGGACATGGTAGGTTAACTGCTTTTTTTCTAGGAGCTGAGTAATCTGAGAGGGTCACACAGAAAAACATTTGTTTCTGTTTTGATCATGCCCTTTTAAGGTGCATGTTATACAGATCAAGATTCCAACTGCTACGAGTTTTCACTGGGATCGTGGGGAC	-0.0654

Study 3 — technique: competition protein-binding microarray; form: double-stranded DNA, one strand shown; medium: in vitro; concentration: 2 µM; together with: Cbf1 competitor, 0.05 µM; reading: higher = stronger binding
Target: Phosphate system positive regulatory protein PHO4, full length, GST-tagged (PHO4, Saccharomyces cerevisiae, UniProt P07270, residues 1-312)
Notes: whole 60-bp probe, lowest competitor level
Construct (chain): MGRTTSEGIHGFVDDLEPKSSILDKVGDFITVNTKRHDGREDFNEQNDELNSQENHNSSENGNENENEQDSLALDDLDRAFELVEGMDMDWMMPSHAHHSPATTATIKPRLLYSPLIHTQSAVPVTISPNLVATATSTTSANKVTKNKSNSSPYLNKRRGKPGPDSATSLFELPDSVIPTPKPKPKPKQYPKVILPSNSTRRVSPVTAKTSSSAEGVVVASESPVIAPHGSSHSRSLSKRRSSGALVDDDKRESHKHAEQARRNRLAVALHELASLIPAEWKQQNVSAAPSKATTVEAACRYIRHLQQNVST
Sequence	fluorescence intensity
GCATATTGAAACCATCACGGGAACGAGAAGAATGGCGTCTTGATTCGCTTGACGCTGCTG	5870 a.u.
CCATGCTGTTTCCATCACGTGCAAATAACCTTTTTGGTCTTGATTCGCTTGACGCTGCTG	16500 a.u.
CCGATGGCACAACACCATGTGATGGGTTGGGAGTGGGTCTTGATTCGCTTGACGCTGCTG	10700 a.u.
TTCATGGTTCTTTCACACGTGAGCCTTCCTCGGAGGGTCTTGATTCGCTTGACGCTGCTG	14200 a.u.
AGAATTTGTCAACAACATGTGGGCTTGGGATAAGCCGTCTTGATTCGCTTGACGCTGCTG	11100 a.u.
CACTACATAACCCGTCACGTTTCAAAAACGAGCCAAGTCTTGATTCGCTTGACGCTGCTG	12900 a.u.
AAATTACTAAGTTGTAGTGTGGGTGACGCCGTATGAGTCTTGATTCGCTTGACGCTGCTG	5000 a.u.
AAATTACTAAGTTGTCGTGTGGGTGACGCCGTATGAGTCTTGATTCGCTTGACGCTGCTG	4990 a.u.
TTTTCTAAGCTTTGTCGCGTGAGATCGCTTCTCATTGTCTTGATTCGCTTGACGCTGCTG	5010 a.u.
AAAGCGGTAATTTGTCAGGTGGGTGCAGATATCTATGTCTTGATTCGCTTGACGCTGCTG	5880 a.u.
TCTCTTCTATCTTTAAAAGCAGGATGTGTTTCTTCCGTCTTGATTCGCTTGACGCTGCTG	4880 a.u.
CTAACGAAGGTTTGCAGAGTGGGTGACAAGCCAAGTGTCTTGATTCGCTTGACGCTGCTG	3500 a.u.
ACTCCAAAATACATCCTCGTGGCAACCCAGGTTACGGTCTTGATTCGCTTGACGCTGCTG	12800 a.u.

Study 4 — Sequence: B1 (DTX1 RING domain); technique: yeast two-hybrid; medium: yeast; notes: mostly zero background; baseline: not given; reading: higher = stronger interaction
B1: DTX1 RING domain (UniProt Q86Y01); chain QKVKNPPDEDCTICMERLVTASGYEGVLRHKGVRPELVGRLGRCGHMYHLLCLVAMYSNGNKDGSLQCPTCKAIYGEKTGTQ
target	lacZ reporter activity
UBE2S UBC core domain (UniProt Q16763)	0
UBE2J1 UBC core domain (UniProt Q9Y385)	0
UBE2I UBC core domain (UniProt P63279)	0
UBE2B UBC core domain (UniProt P63146)	0
UBE2O UBC core domain (UniProt Q9C0C9)	0
UBE2Z UBC core domain (UniProt Q9H832)	0
UBE2J2 UBC core domain (UniProt Q8N2K1)	0

Study 5 — target: CCND3, cyclin fold, Cln2 fusion (human); technique: yeast growth competition, sequencing; medium: yeast; notes: weak parent motif; baseline: not given; reading: higher = stronger binding
Parent: E2F1 docking peptide (human); PPVKRRLDFETDH; partner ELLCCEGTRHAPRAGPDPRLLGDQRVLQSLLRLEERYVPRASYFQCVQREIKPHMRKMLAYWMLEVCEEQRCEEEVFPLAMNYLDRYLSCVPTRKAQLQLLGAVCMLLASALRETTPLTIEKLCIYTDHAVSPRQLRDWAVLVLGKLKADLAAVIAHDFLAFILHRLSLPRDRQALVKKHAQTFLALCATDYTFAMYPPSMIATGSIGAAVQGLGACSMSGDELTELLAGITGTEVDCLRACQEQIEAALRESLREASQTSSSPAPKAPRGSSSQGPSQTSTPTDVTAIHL
Change	normalised enrichment score
PPVKRRLDFTTDH [E10T]	0.0345
PPVKMRLDFETDH [R5M]	-0.0447
PPVKRRLDFETSH [D12S]	0.159
PPVKRRLDTETDH [F9T]	0.133
PPVKRRLDFNTDH [E10N]	0.514
PPVKRRCDFETDH [L7C]	0.312
PPSKRRLDFETDH [V3S]	0.293
PPVKRRLDRETDH [F9R]	-0.00684
PPVKRRLAFETDH [D8A]	0.17
PPVKRRLDFATDH [E10A]	0.274
PPVKRRLDFETQH [D12Q]	0.0835
PPVKRRADFETDH [L7A]	0.353
PPHKRRLDFETDH [V3H]	-0.00981

A few entries again (study 1):
Sequence	E-score
GGTGAACC	0.0597
AGATGGGC	0.0177
TCCCGGCA	0.339
CAGCCCGG	0.339
CTAAGATA	-0.146
CTGATCAA	-0.0863
CTACCACC	-0.0612
CTTGCCCC	-0.0511
